Results from different studies.

| Compound | organism | test | test system | setting | MIC |
| --- | --- | --- | --- | --- | --- |
| CC1C=CC=CC(C)C2C=CC3CC(C)(O)C(Cl)C(C)C3C2C(=O)C(Cl)(Cl)C(=O)C(C)C(=O)O1 (stereo not drawn) | Staphylococcus aureus | – | MRSA clinical isolate | resistant, ERY, CLI, TET, OXA, SXT | 0.1 mg/L |
| Cc1c(CN(C)C(=O)/C=C/c2cnc3c(c2)CC(N)C(=O)N3)oc2ccccc12 (stereo not drawn) | Acinetobacter baumannii | broth microdilution | AR-0273 | – | 32 mg/L |
| CC1(C)[C@H](NC(=O)/C(=N\OCc2c(Cl)cccc2Cl)c2csc(N)n2)C(=O)N1OS(=O)(=O)O | Proteus vulgaris | agar dilution | ATCC 29905, susceptible | – | 0.06 mg/L |
| CCNC(=S)NN=Cc1c2ccccc2cc2ccccc12.Cc1ccc(C(C)C)cc1.[Cl-].[Cl-].[Ru+2] | Bacillus cereus | – | – | 24 h, 37.0 °C | 5 µM |
| C=C/C=C(\C)CC[C@@H](O)C[C@H](O)CC(=O)OC | Bacillus cereus | microbial growth, broth dilution | ATCC10876 | – | 128 mg/L |
| C[C@@H]1C(=O)O[C@@H](C)/C=C/C=C\[C@@H](C)[C@@H]2C=C[C@@H]3C[C@@]4(C)O[C@H]4[C@@H](C)[C@H]3[C@@H]2C(=O)C(Cl)(Cl)C1=O | Staphylococcus aureus | – | MSSA clinical isolate | resistant, PEN, ERY, CLI, TET, SXT | 0.05 mg/L |
| CC1(C)[C@H](NC(=O)/C(=N\OC2(C(=O)O)CCCCC2)c2csc(N)n2)C(=O)N1OS(=O)(=O)O | Shigella flexneri | agar dilution | ATCC 12022, susceptible | – | 4 mg/L |
| COc1ccc(NC(=O)COc2cccc(OCC(C)C)c2)cc1 | Nakaseomyces glabratus | microbial growth, broth dilution | MY1381 | – | 4 mg/L |
| CC1(C)[C@H](NC(=O)/C(=N\OCC(=O)N2CCC(C(=O)O)CC2)c2csc(N)n2)C(=O)N1OS(=O)(=O)O | Proteus vulgaris | agar dilution | ATCC 29905, susceptible | – | 0.125 mg/L |
| CC(=O)NC[C@H]1CN(c2ccc(N3CCN(C(=O)CN)CC3)c(F)c2)C(=O)O1 | Shigella flexneri | broth dilution | CGMCC 1.187 | – | > 200 µM |
| C=CCO/N=C(\C(=O)N[C@@H]1C(=O)N(OS(=O)(=O)O)C1(C)C)c1csc(N)n1 | Shigella flexneri | agar dilution | ATCC 12022, susceptible | – | 0.5 mg/L |
| CC[C@H](C)[C@@H]1NC(=O)[C@@H]([C@@H](C)O)NC(=O)CNC(=O)[C@H](CC(=O)O)NC(=O)CNC(=O)[C@H](CC(=O)O)NC(=O)CNC(=O)[C@H]2CCCCN2C(=O)[C@@H](NC(=O)[C@H](CC(=O)O)NC(=O)/C=C/CCCCCCCCCC(C)C)CNC(=O)[C@@H]2CCCN2C1=O | Staphylococcus aureus | broth microdilution | MRSA USA300, Mueller-Hinton broth, Mg2+ 10 mg/L | 16 h, 37 °C, added: Ca2+ 0 mM | > 128 mg/L |

Repeated from above:
| Compound | organism | test | test system | setting | MIC |
| --- | --- | --- | --- | --- | --- |
| CC1(C)[C@H](NC(=O)/C(=N\OCc2c(Cl)cccc2Cl)c2csc(N)n2)C(=O)N1OS(=O)(=O)O | Proteus vulgaris | agar dilution | ATCC 29905, susceptible | – | 0.06 mg/L |
